Published values collected from several papers.
± gives the spread as reported.
UCHL1: Ubiquitin carboxyl-terminal hydrolase isozyme L1 (UCHL1, Homo sapiens, UniProt P09936)
Sequence of UniProt P09936 (whole entry, looked up): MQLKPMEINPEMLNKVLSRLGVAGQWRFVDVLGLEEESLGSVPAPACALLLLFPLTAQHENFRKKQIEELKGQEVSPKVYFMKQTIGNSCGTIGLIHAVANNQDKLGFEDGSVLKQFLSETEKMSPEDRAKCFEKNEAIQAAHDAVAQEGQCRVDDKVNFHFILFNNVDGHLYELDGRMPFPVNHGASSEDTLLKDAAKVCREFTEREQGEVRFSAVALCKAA
Sequence of UniProt Q9Y6R4 (whole entry, looked up): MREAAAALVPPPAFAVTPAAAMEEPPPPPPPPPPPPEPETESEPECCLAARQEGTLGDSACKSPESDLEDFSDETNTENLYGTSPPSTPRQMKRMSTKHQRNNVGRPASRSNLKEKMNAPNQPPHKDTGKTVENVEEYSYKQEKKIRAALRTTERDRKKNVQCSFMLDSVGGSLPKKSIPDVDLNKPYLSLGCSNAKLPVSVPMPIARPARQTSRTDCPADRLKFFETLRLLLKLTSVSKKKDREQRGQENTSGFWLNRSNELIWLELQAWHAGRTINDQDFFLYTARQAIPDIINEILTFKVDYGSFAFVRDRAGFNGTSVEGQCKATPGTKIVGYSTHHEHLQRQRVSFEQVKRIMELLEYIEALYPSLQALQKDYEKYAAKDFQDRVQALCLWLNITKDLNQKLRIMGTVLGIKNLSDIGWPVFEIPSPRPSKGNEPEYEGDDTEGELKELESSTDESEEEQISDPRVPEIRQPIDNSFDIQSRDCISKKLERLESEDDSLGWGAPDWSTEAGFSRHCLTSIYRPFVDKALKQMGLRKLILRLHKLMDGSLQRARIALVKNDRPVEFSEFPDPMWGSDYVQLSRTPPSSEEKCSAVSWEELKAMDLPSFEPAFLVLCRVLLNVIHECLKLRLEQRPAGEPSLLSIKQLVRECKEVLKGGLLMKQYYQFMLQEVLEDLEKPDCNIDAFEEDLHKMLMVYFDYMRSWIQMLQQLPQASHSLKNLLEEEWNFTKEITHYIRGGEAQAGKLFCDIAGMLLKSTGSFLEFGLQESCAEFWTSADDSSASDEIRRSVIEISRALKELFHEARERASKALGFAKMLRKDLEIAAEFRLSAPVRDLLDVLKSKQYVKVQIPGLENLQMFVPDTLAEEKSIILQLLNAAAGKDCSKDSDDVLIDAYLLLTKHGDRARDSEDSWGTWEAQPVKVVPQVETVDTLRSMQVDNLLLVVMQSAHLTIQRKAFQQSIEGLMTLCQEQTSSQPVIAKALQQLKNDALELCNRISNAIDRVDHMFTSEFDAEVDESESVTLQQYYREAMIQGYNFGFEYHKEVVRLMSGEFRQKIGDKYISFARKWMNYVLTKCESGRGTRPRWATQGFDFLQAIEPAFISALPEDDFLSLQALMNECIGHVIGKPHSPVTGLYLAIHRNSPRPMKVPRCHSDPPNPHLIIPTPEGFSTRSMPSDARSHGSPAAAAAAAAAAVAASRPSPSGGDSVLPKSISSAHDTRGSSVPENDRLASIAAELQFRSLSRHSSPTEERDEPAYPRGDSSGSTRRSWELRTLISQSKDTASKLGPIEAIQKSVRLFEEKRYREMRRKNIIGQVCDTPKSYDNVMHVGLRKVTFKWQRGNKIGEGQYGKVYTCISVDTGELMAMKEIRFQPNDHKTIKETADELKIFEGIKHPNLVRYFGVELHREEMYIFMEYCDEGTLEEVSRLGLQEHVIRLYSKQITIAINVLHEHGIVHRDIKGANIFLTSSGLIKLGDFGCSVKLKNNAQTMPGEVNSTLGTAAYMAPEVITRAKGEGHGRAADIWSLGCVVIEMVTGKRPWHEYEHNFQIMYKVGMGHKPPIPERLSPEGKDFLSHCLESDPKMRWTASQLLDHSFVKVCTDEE

The IC50 of `CCCCC[C@H](O)/C=C/[C@@H]1[C@@H](C/C=C\CCCC(=O)O)[C@@H](O)C[C@H]1O` is reported as greater than 100 µM (Leishmania donovani; intracellular amastigote growth, alamarBlue; THP-1-derived macrophages; 48 h).
With `C[C@H]1O[C@H](OC[C@H]2O[C@@H](Oc3c(-c4ccc(O)cc4)oc4cc(O)cc(O)c4c3=O)[C@H](O)[C@@H](O)[C@@H]2O)[C@@H](O)[C@@H](O)[C@@H]1O` the IC50 was greater than 100 µM (HIV-1; viral infection; TZM-bl, BaL (CCR5-tropic); 48 h).
For `O=C(CCl)N1CCCCc2ccc([N+](=O)[O-])cc21`, the labelling was 12% (UCHL1; covalent, intact protein LC-MS; 12.5 µM).
The IC50 of `COc1cc(/C=C/C(=O)O)ccc1O` is reported as greater than 100 µM (HIV-1; viral infection; TZM-bl, NL4-3 (CXCR4-tropic); 48 h).
`CC(C)C[C@H](NC(=O)C[C@H](O)[C@H](CC(C)C)NC(=O)[C@H](Cc1c[nH]cn1)NC(=O)CNC(=O)[C@@H](NC(=O)[C@H](C)NC(=O)[C@H](Cc1c[nH]c2ccccc12)NC(=O)[C@H](CCC(N)=O)NC(=O)[C@@H](Cc1ccccc1)NC(=O)COCCOCCNC(=O)CCC(C(=O)O)N1CCN(CC(=O)O)CCN(CC(=O)O)CC1)C(C)C)C(N)=O` (stereo partly drawn) [lutetium-177 labelled] has a tissue uptake of 0.07 ± 0.01 %ID/g (female BALB/c nu/nu mice, bone; intravenous, 50 pmol, 24 h).
`O=C(/C=C/c1ccc(O)c(O)c1)O[C@@H]1C[C@@](O)(C(=O)O)C[C@@H](O)[C@@H]1O` has an IC50 of greater than 100 µM (HIV-1; viral infection; TZM-bl, BaL (CCR5-tropic); 48 h).
For `CC1CCN(C(=O)CCl)c2cc(C(F)(F)F)ccc2S1` (stereo not drawn), the labelling was 8.82% (UCHL1; covalent, intact protein LC-MS; 12.5 µM).
The IC50 of `c1ccc(-c2ccc3c(c2)NC(C2Nc4cc(-c5ccccc5)ccc4O2)O3)cc1` (stereo not drawn) is reported as 14.9 ± 6.78 µM (Leishmania donovani; parasite growth; THP-1-derived macrophages, intracellular amastigotes; 48 h).
`COc1cccc(C(=O)C#Cc2ccc(O)c(OC)c2)c1` has an IC50 of 16 µM (Pseudomonas aeruginosa; biofilm formation; PA14; static).
With `COc1cc(OC)c2c(=O)cc(-c3ccccc3Br)oc2c1-c1c(OC)cc(OC)c2c(=O)cc(-c3ccccc3Br)oc12` the IC50 was 11.4 ± 0.63 µM (Toxoplasma gondii; parasite proliferation, 3H-uracil incorporation; ME49 tachyzoites).
`O=C(C#Cc1ccc(F)c(F)c1)c1cccc(Cl)c1` gave an IC50 of 14 µM (Pseudomonas aeruginosa; biofilm formation; PA14; static).
`Oc1ccc(-c2nc(-c3ccc(OC4CCCC4)cc3)no2)cc1` has an IC50 of 24 µg/mL (Clostridioides difficile; ATCC 43255; spores).
`CC(NS(=O)(=O)c1ccc(CCC(=O)N2CCN(C)CC2)cc1)c1ccccc1` (stereo not drawn) gave an inhibition of -15.6% (Trypanosoma cruzi; reporter translation, Renilla luciferase mRNA translation; cell-free extract; 40 µM; relative to: DMSO).
The IC50 of `COc1cc(-c2[o+]c3cc(O)cc(O)c3cc2O[C@@H]2O[C@H](CO)[C@@H](O)[C@H](O)[C@H]2O)ccc1O` is reported as greater than 100 µM (HIV-1; viral infection; TZM-bl, BaL (CCR5-tropic); 48 h).
With `COc1cc(OC)c2c(=O)cc(-c3ccc(N(C)C)cc3)oc2c1` the IC50 was 22.9 ± 14.1 µM (Toxoplasma gondii; parasite proliferation, 3H-uracil incorporation; ME49 tachyzoites).
For `C[C@@H]1O[C@@H](OC[C@H]2O[C@@H](Oc3cc4c(O)cc(O)cc4[o+]c3-c3ccc(O)c(O)c3)[C@H](O)[C@@H](O)[C@@H]2O)[C@H](O)[C@H](O)[C@H]1O`, the IC50 was greater than 100 µM (HIV-1; viral infection; TZM-bl, BaL (CCR5-tropic); 48 h).
`C[C@@H]1[C@H](O)[C@@H](C)/C=C/C=C/C=C/C=C/C=C/C=C/C=C/[C@H](O[C@@H]2O[C@H](C)[C@@H](O)[C@H](N)[C@@H]2O)C[C@@H]2O[C@](O)(C[C@@H](O)C[C@@H](O)[C@H](O)CC[C@@H](O)C[C@@H](O)CC(=O)O[C@H]1C)C[C@H](O)[C@H]2C(=O)O` gave an IC50 of 0.2 ± 0.05 µM (Leishmania donovani; parasite survival, MTT; wild-type axenic amastigotes; 48 h).
For `O=C(O)CCC(=O)OCCN(Cc1ccc(Oc2ccc([N+](=O)[O-])cc2)cc1)C(=O)C(Cl)Cl`, the IC50 was 15.9 ± 4.56 µM (Leishmania martiniquensis; parasite growth; THP-1-derived macrophages, intracellular amastigotes; 48 h).
For `CC[C@@H]1[C@H](F)C(=O)N[C@@H]1COc1nccc2cc(C(N)=O)c(OC)cc12`, the inhibition was -5.7% (Mitogen-activated protein kinase kinase kinase 4 (MAP3K4, Homo sapiens, UniProt Q9Y6R4); ATP-site probe binding, ActivX profiling; THP-1 cell lysate; 0.04 mM, Lys2 site).
`Cc1cc(NC(=O)Nc2ccc3c(c2)OC(F)(F)O3)cc(C(F)(F)F)n1` gave an IC50 of 0.13 µM (Leishmania donovani; MHOM/ET/67/L-82, axenic amastigotes).
`COc1cc(C)c(-c2c(C)cc(OC)c3c(=O)cc(-c4ccc(C(F)(F)F)cc4)oc23)c2oc(-c3ccc(C(F)(F)F)cc3)cc(=O)c12` has an IC50 of 10.4 ± 2.99 µM (Toxoplasma gondii; parasite proliferation, 3H-uracil incorporation; ME49 tachyzoites).

Some of these lines once more:
`Oc1ccc(-c2nc(-c3ccc(OC4CCCC4)cc3)no2)cc1` has an IC50 of 24 µg/mL (Clostridioides difficile; ATCC 43255; spores).
For `O=C(CCl)N1CCCCc2ccc([N+](=O)[O-])cc21`, the labelling was 12% (UCHL1; covalent, intact protein LC-MS; 12.5 µM).
